# Published values pooled from the literature.
# Each numbered part is a random draw from the data of one study; scales do not carry over between parts. Values joined by “and” are separate records of one study, mostly repeats; a detail may differ.
# Chain of UniProt Q9UM73 (whole entry, unmodified, looked up): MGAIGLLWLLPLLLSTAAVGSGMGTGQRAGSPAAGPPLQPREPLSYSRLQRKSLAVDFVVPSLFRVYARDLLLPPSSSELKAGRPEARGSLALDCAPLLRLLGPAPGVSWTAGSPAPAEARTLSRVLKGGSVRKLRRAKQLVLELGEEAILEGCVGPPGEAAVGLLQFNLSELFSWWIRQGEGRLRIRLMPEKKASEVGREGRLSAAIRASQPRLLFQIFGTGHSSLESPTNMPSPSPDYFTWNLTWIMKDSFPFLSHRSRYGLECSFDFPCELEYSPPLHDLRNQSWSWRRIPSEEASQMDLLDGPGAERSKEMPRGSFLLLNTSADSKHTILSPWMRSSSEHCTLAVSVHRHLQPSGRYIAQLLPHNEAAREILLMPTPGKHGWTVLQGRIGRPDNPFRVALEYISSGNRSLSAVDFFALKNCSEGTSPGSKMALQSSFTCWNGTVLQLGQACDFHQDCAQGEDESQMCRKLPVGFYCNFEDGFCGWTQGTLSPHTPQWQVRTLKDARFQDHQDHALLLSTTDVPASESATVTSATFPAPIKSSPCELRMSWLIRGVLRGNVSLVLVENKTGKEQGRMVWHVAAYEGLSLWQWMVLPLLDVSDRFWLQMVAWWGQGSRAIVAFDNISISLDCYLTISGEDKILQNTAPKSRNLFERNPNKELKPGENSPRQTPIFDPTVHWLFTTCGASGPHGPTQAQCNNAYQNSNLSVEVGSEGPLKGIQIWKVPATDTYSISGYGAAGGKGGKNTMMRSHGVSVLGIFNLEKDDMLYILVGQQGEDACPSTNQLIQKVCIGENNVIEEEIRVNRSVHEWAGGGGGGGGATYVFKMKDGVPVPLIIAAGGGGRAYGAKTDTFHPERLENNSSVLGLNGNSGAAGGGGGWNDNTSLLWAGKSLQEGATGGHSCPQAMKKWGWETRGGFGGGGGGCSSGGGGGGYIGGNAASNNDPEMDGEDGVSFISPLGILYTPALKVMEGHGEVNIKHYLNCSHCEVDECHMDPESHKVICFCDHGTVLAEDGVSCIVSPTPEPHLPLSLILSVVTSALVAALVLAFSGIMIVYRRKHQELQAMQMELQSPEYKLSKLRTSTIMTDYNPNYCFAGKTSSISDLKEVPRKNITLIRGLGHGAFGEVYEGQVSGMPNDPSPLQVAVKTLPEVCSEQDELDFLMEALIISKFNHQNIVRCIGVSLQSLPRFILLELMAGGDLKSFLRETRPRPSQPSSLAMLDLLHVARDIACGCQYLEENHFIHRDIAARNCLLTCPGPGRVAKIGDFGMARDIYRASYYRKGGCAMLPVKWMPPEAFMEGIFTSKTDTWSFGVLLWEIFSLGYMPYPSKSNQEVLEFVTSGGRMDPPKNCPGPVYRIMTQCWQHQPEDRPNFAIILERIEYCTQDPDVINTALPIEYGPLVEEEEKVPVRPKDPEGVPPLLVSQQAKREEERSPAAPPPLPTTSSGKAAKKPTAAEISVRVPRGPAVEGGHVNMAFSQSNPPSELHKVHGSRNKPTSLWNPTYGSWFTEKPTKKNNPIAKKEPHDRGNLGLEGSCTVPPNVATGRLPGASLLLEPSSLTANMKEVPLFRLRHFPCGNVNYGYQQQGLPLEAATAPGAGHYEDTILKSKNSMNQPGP
# Chain of UniProt Q8NEB9 (whole entry, looked up): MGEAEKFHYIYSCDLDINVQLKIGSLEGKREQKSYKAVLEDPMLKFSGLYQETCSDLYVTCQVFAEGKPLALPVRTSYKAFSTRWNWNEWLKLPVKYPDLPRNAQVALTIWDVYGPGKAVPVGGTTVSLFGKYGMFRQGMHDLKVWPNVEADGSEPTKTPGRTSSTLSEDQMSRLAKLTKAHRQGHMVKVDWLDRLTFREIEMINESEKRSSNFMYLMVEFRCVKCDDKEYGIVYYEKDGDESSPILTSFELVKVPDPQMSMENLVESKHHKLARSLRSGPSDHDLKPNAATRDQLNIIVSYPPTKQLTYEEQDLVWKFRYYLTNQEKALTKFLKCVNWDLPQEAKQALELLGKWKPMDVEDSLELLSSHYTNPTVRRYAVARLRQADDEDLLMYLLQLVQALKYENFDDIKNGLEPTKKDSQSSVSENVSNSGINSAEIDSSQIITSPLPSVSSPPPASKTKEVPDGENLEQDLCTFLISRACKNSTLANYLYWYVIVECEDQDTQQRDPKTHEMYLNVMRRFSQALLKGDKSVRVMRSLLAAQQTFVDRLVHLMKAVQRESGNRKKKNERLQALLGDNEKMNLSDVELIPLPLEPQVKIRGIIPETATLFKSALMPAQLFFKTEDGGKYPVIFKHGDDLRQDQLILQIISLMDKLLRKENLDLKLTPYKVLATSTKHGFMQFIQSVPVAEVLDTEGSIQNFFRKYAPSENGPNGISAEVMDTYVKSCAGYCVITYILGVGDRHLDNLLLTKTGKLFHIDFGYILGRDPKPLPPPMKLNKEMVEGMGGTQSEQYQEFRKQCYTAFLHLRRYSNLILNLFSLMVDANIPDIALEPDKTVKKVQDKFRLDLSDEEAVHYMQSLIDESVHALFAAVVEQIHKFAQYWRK
# Chain of UniProt P36894 (whole entry, looked up): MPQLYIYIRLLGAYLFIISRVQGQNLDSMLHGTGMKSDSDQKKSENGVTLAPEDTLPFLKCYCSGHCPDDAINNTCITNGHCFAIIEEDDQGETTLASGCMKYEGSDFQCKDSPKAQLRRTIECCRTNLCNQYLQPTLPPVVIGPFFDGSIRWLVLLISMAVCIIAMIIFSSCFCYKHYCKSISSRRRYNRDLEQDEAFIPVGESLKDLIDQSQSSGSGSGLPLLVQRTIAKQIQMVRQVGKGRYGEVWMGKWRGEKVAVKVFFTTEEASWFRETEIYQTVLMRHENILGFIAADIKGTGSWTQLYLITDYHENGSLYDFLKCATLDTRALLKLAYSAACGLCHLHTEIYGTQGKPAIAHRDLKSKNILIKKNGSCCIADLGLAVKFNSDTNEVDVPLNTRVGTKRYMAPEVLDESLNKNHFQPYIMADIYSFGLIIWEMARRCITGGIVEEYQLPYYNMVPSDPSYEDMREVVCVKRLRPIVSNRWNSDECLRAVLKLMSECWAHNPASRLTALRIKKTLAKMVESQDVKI
# Chain of UniProt O43293 (whole entry, looked up): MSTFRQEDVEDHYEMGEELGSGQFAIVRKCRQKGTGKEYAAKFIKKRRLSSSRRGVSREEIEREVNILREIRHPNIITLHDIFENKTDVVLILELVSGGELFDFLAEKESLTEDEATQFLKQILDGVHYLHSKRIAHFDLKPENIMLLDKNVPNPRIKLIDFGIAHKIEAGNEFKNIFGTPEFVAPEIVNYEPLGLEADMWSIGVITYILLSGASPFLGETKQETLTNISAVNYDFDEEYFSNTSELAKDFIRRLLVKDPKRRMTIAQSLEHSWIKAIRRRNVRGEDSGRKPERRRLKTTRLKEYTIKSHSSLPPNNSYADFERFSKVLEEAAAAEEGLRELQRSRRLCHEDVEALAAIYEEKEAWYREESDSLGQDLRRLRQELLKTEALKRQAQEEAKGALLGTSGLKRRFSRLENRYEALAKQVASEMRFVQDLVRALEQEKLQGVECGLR
# Chain of UniProt P51817 (whole entry, looked up): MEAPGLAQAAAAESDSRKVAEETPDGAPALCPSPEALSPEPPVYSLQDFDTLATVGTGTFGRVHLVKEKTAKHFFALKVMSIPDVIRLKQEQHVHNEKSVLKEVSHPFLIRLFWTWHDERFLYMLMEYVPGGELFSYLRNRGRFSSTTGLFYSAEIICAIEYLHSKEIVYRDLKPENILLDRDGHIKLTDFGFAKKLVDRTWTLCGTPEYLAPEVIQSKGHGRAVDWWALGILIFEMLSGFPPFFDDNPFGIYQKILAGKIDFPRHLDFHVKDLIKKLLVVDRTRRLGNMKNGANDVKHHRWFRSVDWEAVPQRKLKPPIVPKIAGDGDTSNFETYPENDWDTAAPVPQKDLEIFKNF

# Sample 1
# Target: Serine/threonine-protein kinase BRSK2 (BRSK2, Homo sapiens, UniProt Q8IWQ3)
# Effect on: enzyme activity
# Action: inhibitor
# Concentration: 0.5 µM
# Baseline: control
# Residues (Q8IWQ3 1-736): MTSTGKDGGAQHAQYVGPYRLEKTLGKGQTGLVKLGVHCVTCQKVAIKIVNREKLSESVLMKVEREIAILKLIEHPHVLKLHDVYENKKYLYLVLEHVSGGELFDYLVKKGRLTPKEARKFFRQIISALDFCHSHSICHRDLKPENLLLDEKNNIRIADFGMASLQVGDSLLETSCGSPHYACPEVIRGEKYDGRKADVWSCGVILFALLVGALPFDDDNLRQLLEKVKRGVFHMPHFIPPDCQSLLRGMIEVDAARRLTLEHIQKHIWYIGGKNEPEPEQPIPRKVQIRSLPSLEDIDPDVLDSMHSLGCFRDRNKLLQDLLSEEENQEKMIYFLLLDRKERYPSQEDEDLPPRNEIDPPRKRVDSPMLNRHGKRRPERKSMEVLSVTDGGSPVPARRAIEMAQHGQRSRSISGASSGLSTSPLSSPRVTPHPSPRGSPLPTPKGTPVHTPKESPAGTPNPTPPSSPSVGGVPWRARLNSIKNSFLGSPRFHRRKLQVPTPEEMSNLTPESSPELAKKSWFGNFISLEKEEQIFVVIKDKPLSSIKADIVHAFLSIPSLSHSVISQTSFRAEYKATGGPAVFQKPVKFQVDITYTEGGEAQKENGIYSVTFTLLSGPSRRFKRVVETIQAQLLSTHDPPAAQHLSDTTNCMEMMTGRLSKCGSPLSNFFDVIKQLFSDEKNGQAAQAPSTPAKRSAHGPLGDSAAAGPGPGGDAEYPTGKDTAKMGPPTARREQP
SMILES,remaining activity [%]
N#CC(=C(N)Sc1ccc(N)cc1)c1ccccc1C(F)(F)F,102
Cc1ccc(NC2=CC(=O)c3sc(C)nc3C2=O)cc1,93.1
CC(=O)c1ccc(N2CCOCC2)cc1O,100
CC#CC(=O)Nc1cc2c(Nc3ccc(F)c(Cl)c3)ncnc2cn1,93.3
O=C1NC(=O)C(c2c[nH]c3ccccc23)=C1c1c[nH]c2ccccc12,86
Nc1nccc(-c2c(-c3ccc(F)cc3)ncn2C2CCNCC2)n1,96.6
Oc1ccc(Nc2nc(-c3ccc(Cl)cc3)cs2)cc1,101
CCc1[nH]c(-c2ccc(OC)cc2)nc1-c1ccncc1,105
NC(=O)c1ccc(N(C(N)=O)c2c(F)cccc2F)nc1-c1ccc(F)cc1F,96.6
O=C1Cc2c([nH]c3ccc([N+](=O)[O-])cc23)-c2ccccc2N1,34.5
Cc1cc(Nc2nc(-c3ccccc3)nc3ccccc23)n[nH]1,61.4
Cc1cncc2cccc(S(=O)(=O)N3CCCN(C(=O)CN)C[C@@H]3C)c12,85.4
CCCC(=O)Oc1ccc2[nH]c(C(=O)c3cc4ccccc4[nH]3)cc2c1,98.8
CC(C)(C)n1nc(Cc2cccc3ccccc23)c2c(N)ncnc21,92
O=S(=O)(NCCNC/C=C/c1ccc(Br)cc1)c1cccc2cnccc12,92.4
CSc1nc(-c2ccnc(N[C@@H](C)c3ccccc3)c2)c(-c2ccc(F)cc2)[nH]1 (racemic),94.8
COc1ccc(S(=O)(=O)N(CCO)c2ccccc2CN(C)CC=Cc2ccc(Cl)cc2)cc1,103
CC[n+]1c(/C=C/N(C)c2ccccc2)n(-c2ccccc2)c2ccc(-c3nc4ccccc4s3)cc21,95.7
COc1cc(Nc2c(C#N)cnc3cc(OCCCN4CCN(C)CC4)c(OC)cc23)c(Cl)cc1Cl,94.2
Nc1ncnc2c1cnn2-c1ccccc1,95.3

# Sample 2
# Structure (SMILES): O=C1CCc2cc(Nc3cc(OC4CCOCC4)c([N+](=O)[O-])cc3Cl)ccc2N1
# Concentration: 1 µM
target,assay,remaining binding [%]
"Serine/threonine-protein kinase WNK4 (WNK4, Homo sapiens, UniProt Q96J92)","cell-free assay, competition with immobilised ligand",100
"Cyclin-dependent kinase 15 (CDK15, Homo sapiens, UniProt Q96Q40)","cell-free assay, competition with immobilised ligand",73
"Serine/threonine-protein kinase SIK1 (SIK1, Homo sapiens, UniProt P57059)",competition binding,96
"Serine/threonine-protein kinase N2 (PKN2, Homo sapiens, UniProt Q16513)","cell-free assay, competition with immobilised ligand",100
"Tyrosine-protein kinase ABL1, phosphorylated (ABL1, Homo sapiens, UniProt P00519)","cell-free assay, competition with immobilised ligand",100
"Aurora kinase A (AURKA, Homo sapiens, UniProt O14965)","cell-free assay, competition with immobilised ligand",87
"Receptor-type tyrosine-protein kinase FLT3 (FLT3, Homo sapiens, UniProt P36888)","cell-free assay, competition with immobilised ligand",90
"Cyclin-dependent kinase 2 (CDK2, Homo sapiens, UniProt P24941)","cell-free assay, competition with immobilised ligand",88
"Inhibitor of nuclear factor kappa-B kinase subunit epsilon (IKBKE, Homo sapiens, UniProt Q14164)","cell-free assay, competition with immobilised ligand",90
"Receptor tyrosine-protein kinase erbB-4 (ERBB4, Homo sapiens, UniProt Q15303)","cell-free assay, competition with immobilised ligand",100
"Bone morphogenetic protein receptor type-1A (BMPR1A, Homo sapiens, UniProt P36894)","cell-free assay, competition with immobilised ligand",97
"Mast/stem cell growth factor receptor Kit (KIT, Homo sapiens, UniProt P10721, D816H)","cell-free assay, competition with immobilised ligand",100
"Dual specificity mitogen-activated protein kinase kinase 6 (MAP2K6, Homo sapiens, UniProt P52564)","cell-free assay, competition with immobilised ligand",69
"Tyrosine-protein kinase Tec (TEC, Homo sapiens, UniProt P42680)","cell-free assay, competition with immobilised ligand",82
"Ephrin type-B receptor 2 (EPHB2, Homo sapiens, UniProt P29323)","cell-free assay, competition with immobilised ligand",96
"Tyrosine-protein kinase JAK3, JH1 (JAK3, Homo sapiens, UniProt P52333)","cell-free assay, competition with immobilised ligand",96
"ALK tyrosine kinase receptor (ALK, Homo sapiens, UniProt Q9UM73, C1156Y)","cell-free assay, competition with immobilised ligand",91
"Calcium/calmodulin-dependent protein kinase type II subunit beta (CAMK2B, Homo sapiens, UniProt Q13554)","cell-free assay, competition with immobilised ligand",90
"cAMP-dependent protein kinase catalytic subunit PRKX (PRKX, Homo sapiens, UniProt P51817)","cell-free assay, competition with immobilised ligand",100
"Tyrosine-protein kinase ABL1, phosphorylated (ABL1, Homo sapiens, UniProt P00519, Y253F)","cell-free assay, competition with immobilised ligand",79
"Rho-associated protein kinase 2 (ROCK2, Homo sapiens, UniProt O75116)","cell-free assay, competition with immobilised ligand",100
"Serine/threonine-protein kinase Nek7 (NEK7, Homo sapiens, UniProt Q8TDX7)","cell-free assay, competition with immobilised ligand",87
"STE20/SPS1-related proline-alanine-rich protein kinase (STK39, Homo sapiens, UniProt Q9UEW8)","cell-free assay, competition with immobilised ligand",100
"Phosphatidylinositol 3-kinase catalytic subunit type 3 (PIK3C3, Homo sapiens, UniProt Q8NEB9)","cell-free assay, competition with immobilised ligand",100
"Death-associated protein kinase 3 (DAPK3, Homo sapiens, UniProt O43293)","cell-free assay, competition with immobilised ligand",91

# Sample 3
# Cell line: A-375
# Concentration: 100 µM
# Time: 36 h
SMILES,viability
COc1ccc(C(=O)NCc2ccc(OCCN(C)C)cc2)cc1OC,76.7%
CNC(=O)c1cc(Oc2ccc(NC(=O)Nc3ccc(Cl)c(C(F)(F)F)c3)cc2)ccn1,11.1% and 15.7%
NC(=O)Cc1cccc(C(=O)c2ccccc2)c1N,81%
CC(=O)CCCCn1c(=O)c2c(ncn2C)n(C)c1=O,111%
C=CC[C@@H]1/C=C(\C)C[C@H](C)C[C@H](OC)[C@H]2O[C@@](O)(C(=O)C(=O)N3CCCC[C@H]3C(=O)O[C@H](/C(C)=C/[C@@H]3CC[C@@H](O)[C@H](OC)C3)[C@H](C)[C@@H](O)CC1=O)[C@H](C)C[C@@H]2OC,2.38%
Cc1cc(C(C)(C)C)c(O)c(C)c1CC1=NCCN1,112%
COc1ccc2[nH]c([S+]([O-])Cc3ncc(C)c(OC)c3C)nc2c1 (centres unmarked),22%
Clc1ccc(C(Cn2ccnc2)OCc2c(Cl)cccc2Cl)c(Cl)c1 (centres unmarked),74.8%
Nc1nccs1,117%
N=C(N)c1ccc(OCCCCCOc2ccc(C(=N)N)cc2)cc1,8.01%
CC1=C(C)C(=O)C(C(CCCCCC(=O)O)c2ccccc2)=C(C)C1=O (centres unmarked),92.1%
C[C@@H](O)[C@H]1C(=O)N2C(C(=O)O)=C(SCCN=CN)C[C@H]12,95.1%

# Sample 4
# SMILES: C=CCc1ccc(O)c(-c2cc(CC=C)ccc2O)c1
# Effect on: chloride current
# Technique: whole-cell voltage clamp
# ANO1 del476-501/R541D: Anoctamin-1 (ANO1, Homo sapiens, UniProt Q5XXA6, del476-501/R541D)
# Chain of UniProt Q5XXA6 (whole entry, unmodified, looked up): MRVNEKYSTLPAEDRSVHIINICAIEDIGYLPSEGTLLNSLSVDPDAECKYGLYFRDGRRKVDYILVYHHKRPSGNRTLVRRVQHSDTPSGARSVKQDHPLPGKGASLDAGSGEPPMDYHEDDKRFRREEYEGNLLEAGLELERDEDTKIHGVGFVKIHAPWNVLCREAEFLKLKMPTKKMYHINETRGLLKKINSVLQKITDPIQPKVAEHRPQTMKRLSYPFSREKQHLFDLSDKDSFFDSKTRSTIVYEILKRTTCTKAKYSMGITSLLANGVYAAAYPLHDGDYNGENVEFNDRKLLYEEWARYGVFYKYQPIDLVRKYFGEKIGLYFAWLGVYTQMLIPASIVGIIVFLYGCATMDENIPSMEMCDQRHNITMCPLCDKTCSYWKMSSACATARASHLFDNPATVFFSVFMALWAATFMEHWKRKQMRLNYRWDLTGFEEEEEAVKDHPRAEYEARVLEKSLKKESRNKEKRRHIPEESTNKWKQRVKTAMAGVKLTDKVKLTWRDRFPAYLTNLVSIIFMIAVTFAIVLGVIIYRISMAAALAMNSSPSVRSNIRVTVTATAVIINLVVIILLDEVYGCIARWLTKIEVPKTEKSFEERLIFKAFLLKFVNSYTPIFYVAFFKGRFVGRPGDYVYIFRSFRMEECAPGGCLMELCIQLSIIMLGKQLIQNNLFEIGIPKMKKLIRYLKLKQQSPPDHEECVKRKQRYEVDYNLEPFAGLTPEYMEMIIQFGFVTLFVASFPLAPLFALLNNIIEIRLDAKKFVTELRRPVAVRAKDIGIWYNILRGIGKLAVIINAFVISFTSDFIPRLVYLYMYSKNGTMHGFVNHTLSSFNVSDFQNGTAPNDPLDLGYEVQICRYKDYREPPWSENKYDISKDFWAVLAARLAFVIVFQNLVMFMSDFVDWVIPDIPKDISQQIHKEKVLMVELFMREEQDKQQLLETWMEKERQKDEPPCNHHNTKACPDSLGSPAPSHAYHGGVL
# ANO1 D383A/del476-501: Anoctamin-1 (ANO1, Homo sapiens, UniProt Q5XXA6, D383A/del476-501)
# ANO1 del476-501/M544A: Anoctamin-1 (ANO1, Homo sapiens, UniProt Q5XXA6, del476-501/M544A)
target,assay,conditions,IC50
"Anoctamin-1 (ANO1, Homo sapiens, UniProt Q5XXA6, del476-501/R541K)",inhibitor,R515K mutant at 100 mV,29.4 µM
"Anoctamin-1 (ANO1, Homo sapiens, UniProt Q5XXA6, del476-501/L548A)",,membrane voltage 20 mV,31.1 µM
ANO1 del476-501/R541D,inhibitor,R515D mutant at -80 mV,172 µM
ANO1 D383A/del476-501,,membrane voltage -100 mV,47.3 µM
ANO1 del476-501/M544A,,membrane voltage -20 mV,80.4 µM
"Anoctamin-1 (ANO1, Homo sapiens, UniProt Q5XXA6, del476-501/E649I)",inhibitor,E623I mutant at -40 mV,142 µM
ANO1 del476-501/R541D,inhibitor,R515D mutant at 80 mV,200 µM
ANO1 D383A/del476-501,,membrane voltage 20 mV,23.5 µM
"Anoctamin-1 (ANO1, Homo sapiens, UniProt Q5XXA6, del476-501/M544I)",inhibitor,100 mV holding voltage,176 µM
"Anoctamin-1 (ANO1, Homo sapiens, UniProt Q5XXA6, del476-501)",,"membrane voltage -40 mV, added: 300 nM Ca2+",19.3 µM
"Anoctamin-1 (ANO1, Homo sapiens, UniProt Q5XXA6, del476-501/K629I)",inhibitor,mutant K603I,215 µM
ANO1 del476-501/M544A,,membrane voltage -60 mV,99 µM
"Anoctamin-1 (ANO1, Homo sapiens, UniProt Q5XXA6, del476-501/R561A)",,membrane voltage -80 mV,36.9 µM
"Anoctamin-1 (ANO1, Homo sapiens, UniProt Q5XXA6, del476-501/R541I)",inhibitor,R515I mutant at -100 mV,52.6 µM

# A few entries again (sample 2):
target,assay,remaining binding [%]
"Cyclin-dependent kinase 2 (CDK2, Homo sapiens, UniProt P24941)","cell-free assay, competition with immobilised ligand",88
"Tyrosine-protein kinase ABL1, phosphorylated (ABL1, Homo sapiens, UniProt P00519, Y253F)","cell-free assay, competition with immobilised ligand",79
"Dual specificity mitogen-activated protein kinase kinase 6 (MAP2K6, Homo sapiens, UniProt P52564)","cell-free assay, competition with immobilised ligand",69
"Serine/threonine-protein kinase Nek7 (NEK7, Homo sapiens, UniProt Q8TDX7)","cell-free assay, competition with immobilised ligand",87
"Tyrosine-protein kinase ABL1, phosphorylated (ABL1, Homo sapiens, UniProt P00519)","cell-free assay, competition with immobilised ligand",100
"Tyrosine-protein kinase JAK3, JH1 (JAK3, Homo sapiens, UniProt P52333)","cell-free assay, competition with immobilised ligand",96
"Bone morphogenetic protein receptor type-1A (BMPR1A, Homo sapiens, UniProt P36894)","cell-free assay, competition with immobilised ligand",97
